Results gathered from unrelated publications.
Compare with care: the assays were run in different laboratories. Values joined by “and” are separate records of one study, mostly repeats; a detail may differ. Numbers after ± are the reported error.

SMILES | species | matrix | route | dose | time | plasma concentration
C=C[C@]1(C)C[C@@H](OC(=O)CSc2ccc(NC(=O)c3ccco3)cc2)[C@]2(C)[C@H](C)CC[C@]3(CCC(=O)[C@H]32)[C@@H](C)[C@@H]1O | Mycoplasma gallisepticum-infected chickens | plasma | intramuscular | 80 mg/kg | 0.5 h | 7.53 µg/mL and 7.45 µg/mL and 7.26 µg/mL and 10.2 µg/mL and 7.02 µg/mL and 10.7 µg/mL and 7.16 µg/mL and 7.42 µg/mL
CCC(=O)N(C)c1ccc(Cl)c(Cl)c1 | female C57BL/6 mice |  | intravenous | 2 mg/kg | 2 h | 0.0224 µg/mL and 0.0193 µg/mL
O=C1C2CC3CC1CC(C(=O)N1CCN(c4ccc([N+](=O)[O-])c5ncccc45)CC1)(C3)C2 | ICR mice male | plasma | intravenous | 1 mg/kg | 1 h | 0.00629 µg/mL
Cc1noc(C)c1Cn1cc(N2C(=O)CN(Cc3cccc(OS(=O)(=O)O)c3)C2=O)cn1 | rat Sprague-Dawley male | plasma | oral | 100 mg/kg of parent drug | 0.5 h | 0.555 ± 0.153 µg/mL
[2H]C([2H])([2H])C1(C([2H])([2H])[2H])NC(=O)N(c2ccc(F)c(C(C)(F)F)c2)C1=O | male Swiss outbred mice | plasma | oral | 100 mg/kg | 48 h | 32.1 ± 1.69 µg/mL
C=CC(=O)N1CCCC(n2c(=O)c3ncccc3n(Cc3ccc(Oc4ccccc4)cc3)c2=O)C1 (centres unmarked) | male BALB/c mice | plasma | intraperitoneal | 200 mg/kg | 1 h | 97.3 µg/mL and 89.4 µg/mL
O=C(NS(=O)(=O)c1cccs1)c1cc2ccccc2n1Cc1ccc(Br)c2ccccc12 | rats |  | oral | dose not given | 24 h | not detected
O=C1CCC(N2Cc3cc(C(=O)O)c(F)cc3C2=O)C(=O)N1 (centres unmarked) | cynomolgus monkey, male |  | oral | 0.3 mg/kg parent drug | 6 h | 0.0021 ± 0.0021 µg/mL

For quick reference, copied from above:
SMILES | species | matrix | route | dose | time | plasma concentration
O=C1C2CC3CC1CC(C(=O)N1CCN(c4ccc([N+](=O)[O-])c5ncccc45)CC1)(C3)C2 | ICR mice male | plasma | intravenous | 1 mg/kg | 1 h | 0.00629 µg/mL
